Measured values of several laboratories.
Every numbered part comes from another study and shows a few of its results, in no order.
Chain of UniProt Q96L34 (whole entry, looked up): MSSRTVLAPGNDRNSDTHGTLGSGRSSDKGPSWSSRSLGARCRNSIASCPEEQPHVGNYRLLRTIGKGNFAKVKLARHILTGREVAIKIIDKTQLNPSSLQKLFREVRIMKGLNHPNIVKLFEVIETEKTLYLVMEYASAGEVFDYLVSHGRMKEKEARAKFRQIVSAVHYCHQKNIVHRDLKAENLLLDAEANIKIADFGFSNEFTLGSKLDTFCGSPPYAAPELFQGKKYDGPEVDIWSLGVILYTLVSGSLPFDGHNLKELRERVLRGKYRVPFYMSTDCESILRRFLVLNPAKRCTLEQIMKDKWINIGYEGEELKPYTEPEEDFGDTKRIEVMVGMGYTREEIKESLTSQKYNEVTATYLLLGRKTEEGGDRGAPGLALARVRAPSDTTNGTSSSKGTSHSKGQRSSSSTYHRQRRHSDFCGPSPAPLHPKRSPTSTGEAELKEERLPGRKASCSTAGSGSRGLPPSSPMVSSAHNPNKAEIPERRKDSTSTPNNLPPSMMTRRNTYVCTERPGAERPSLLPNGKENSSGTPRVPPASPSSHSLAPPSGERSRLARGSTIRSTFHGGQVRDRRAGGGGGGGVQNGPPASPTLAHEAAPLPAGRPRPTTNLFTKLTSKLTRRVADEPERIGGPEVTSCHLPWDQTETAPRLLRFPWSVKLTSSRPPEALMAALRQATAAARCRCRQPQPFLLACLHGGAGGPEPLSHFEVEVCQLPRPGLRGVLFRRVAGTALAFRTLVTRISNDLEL
Chain of UniProt Q9H1R3 (whole entry, looked up): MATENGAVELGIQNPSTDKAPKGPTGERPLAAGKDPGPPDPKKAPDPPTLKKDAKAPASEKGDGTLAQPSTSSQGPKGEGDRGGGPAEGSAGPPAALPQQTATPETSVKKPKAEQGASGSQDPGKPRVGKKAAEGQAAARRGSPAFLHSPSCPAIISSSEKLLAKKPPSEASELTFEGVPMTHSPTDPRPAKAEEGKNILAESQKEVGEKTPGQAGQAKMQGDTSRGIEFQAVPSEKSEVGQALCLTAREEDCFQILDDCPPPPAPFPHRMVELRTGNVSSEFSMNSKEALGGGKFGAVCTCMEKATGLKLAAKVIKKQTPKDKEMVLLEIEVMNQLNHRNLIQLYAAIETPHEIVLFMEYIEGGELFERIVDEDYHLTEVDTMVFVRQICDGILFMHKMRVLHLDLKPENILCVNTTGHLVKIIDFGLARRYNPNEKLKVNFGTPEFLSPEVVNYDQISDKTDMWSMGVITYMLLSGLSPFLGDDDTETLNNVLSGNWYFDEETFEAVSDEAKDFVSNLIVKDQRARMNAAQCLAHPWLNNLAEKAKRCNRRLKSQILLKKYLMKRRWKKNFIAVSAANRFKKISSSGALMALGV
Chain of UniProt P19784 (whole entry, looked up): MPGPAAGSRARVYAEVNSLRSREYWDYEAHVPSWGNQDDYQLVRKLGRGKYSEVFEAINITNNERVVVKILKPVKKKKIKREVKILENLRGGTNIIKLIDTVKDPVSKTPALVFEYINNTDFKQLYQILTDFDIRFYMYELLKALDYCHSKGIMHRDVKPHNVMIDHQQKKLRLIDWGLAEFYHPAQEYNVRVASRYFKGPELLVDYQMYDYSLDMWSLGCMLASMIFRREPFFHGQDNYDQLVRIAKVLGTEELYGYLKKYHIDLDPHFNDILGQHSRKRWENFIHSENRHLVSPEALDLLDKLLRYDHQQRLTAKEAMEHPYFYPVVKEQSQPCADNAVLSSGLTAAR
Chain of UniProt P51956 (whole entry, looked up): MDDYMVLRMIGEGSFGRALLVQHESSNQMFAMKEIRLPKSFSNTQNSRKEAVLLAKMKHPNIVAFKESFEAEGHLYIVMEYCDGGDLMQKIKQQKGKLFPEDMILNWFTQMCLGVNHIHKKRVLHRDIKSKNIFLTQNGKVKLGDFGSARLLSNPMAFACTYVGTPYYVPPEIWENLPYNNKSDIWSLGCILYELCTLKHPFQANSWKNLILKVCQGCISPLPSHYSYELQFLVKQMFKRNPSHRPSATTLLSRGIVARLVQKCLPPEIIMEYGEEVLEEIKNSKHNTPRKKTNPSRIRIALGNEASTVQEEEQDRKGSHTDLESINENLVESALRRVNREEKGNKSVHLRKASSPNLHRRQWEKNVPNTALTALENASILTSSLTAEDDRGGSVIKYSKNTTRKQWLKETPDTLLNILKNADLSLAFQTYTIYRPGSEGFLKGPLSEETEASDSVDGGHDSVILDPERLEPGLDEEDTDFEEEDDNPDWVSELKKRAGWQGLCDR
Chain of UniProt Q52WX2 (whole entry, looked up): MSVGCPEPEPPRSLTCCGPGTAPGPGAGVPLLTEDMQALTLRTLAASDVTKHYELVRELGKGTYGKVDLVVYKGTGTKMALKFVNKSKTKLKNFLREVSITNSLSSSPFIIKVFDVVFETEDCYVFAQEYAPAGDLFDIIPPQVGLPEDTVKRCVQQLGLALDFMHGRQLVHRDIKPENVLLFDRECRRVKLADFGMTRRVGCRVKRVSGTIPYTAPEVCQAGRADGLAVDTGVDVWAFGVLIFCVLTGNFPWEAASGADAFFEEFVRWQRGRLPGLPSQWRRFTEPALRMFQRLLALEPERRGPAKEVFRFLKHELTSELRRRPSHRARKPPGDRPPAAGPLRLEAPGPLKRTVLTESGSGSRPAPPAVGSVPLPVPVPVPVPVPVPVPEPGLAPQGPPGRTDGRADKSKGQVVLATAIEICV
Chain of UniProt Q6P3R8 (whole entry, looked up): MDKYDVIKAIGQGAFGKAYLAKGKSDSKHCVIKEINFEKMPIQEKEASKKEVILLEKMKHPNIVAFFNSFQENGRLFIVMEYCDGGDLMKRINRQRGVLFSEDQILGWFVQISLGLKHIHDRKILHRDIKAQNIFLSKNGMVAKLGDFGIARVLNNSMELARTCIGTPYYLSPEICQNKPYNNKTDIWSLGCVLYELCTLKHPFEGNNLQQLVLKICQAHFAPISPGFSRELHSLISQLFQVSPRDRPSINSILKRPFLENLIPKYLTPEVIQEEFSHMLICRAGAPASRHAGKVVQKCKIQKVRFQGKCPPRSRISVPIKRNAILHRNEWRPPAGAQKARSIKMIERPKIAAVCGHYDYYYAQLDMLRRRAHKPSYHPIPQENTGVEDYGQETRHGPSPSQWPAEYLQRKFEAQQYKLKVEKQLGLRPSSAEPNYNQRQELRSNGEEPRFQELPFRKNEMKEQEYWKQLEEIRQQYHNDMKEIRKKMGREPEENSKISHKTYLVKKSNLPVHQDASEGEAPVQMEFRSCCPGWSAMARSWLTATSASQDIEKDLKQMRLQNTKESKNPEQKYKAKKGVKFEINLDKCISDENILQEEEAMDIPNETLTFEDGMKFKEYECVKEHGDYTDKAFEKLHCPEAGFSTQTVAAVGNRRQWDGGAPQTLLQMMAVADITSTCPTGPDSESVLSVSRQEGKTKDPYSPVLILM
Chain of UniProt P53350 (whole entry, looked up): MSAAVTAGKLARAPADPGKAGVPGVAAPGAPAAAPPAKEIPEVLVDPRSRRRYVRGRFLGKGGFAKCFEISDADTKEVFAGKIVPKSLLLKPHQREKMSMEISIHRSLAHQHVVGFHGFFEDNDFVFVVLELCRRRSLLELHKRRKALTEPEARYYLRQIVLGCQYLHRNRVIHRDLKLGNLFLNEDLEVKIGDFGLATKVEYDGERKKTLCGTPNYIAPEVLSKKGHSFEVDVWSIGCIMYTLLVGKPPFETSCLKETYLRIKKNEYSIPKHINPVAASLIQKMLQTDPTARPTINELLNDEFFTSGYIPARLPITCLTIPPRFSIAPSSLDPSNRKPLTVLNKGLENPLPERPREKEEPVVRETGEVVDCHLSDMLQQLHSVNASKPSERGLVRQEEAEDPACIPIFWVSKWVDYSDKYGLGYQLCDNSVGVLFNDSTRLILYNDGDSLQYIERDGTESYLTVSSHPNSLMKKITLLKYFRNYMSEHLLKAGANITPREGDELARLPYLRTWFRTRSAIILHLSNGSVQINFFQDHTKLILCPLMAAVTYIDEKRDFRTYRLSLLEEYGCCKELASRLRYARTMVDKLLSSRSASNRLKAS
Chain of UniProt Q9UQB9 (whole entry, looked up): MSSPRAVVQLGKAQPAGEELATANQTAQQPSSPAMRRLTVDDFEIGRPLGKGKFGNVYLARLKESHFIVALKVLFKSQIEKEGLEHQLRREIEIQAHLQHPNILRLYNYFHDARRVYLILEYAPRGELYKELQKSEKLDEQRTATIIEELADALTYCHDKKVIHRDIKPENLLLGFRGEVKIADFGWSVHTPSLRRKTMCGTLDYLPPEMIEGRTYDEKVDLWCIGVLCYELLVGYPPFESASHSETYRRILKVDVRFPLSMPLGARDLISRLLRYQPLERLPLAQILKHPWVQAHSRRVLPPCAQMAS

Set 1 — observed: enzyme activity; mode: inhibitor; tested at: 0.5 µM; baseline: control; quantity: remaining activity
Target: Tyrosine-protein kinase HCK (HCK, Homo sapiens, UniProt P08631)
Chain of UniProt P08631 (whole entry, looked up): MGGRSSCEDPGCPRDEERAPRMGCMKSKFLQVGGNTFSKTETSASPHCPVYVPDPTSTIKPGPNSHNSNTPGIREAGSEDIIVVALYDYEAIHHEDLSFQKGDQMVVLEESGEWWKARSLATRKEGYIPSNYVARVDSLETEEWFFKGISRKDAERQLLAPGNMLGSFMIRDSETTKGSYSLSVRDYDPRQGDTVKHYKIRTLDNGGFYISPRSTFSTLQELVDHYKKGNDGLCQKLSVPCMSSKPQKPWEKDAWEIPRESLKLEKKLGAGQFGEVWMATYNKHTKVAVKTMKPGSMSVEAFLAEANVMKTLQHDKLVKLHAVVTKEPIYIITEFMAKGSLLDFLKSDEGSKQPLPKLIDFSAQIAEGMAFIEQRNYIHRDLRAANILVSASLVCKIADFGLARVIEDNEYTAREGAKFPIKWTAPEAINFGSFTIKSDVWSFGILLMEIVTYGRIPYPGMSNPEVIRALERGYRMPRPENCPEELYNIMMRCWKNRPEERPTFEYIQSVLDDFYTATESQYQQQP
O=Nc1c(-c2c(O)[nH]c3cc(Br)ccc23)[nH]c2ccccc12: 13.3%
O=C1Cc2c([nH]c3ccc(Br)cc23)-c2ccccc2N1: 85.5%
CN(C)S(=O)(=O)c1ccc2c(c1)/C(=C/c1cc3c([nH]1)CCCC3)C(=O)N2: 31.6%
c1ccc(-c2n[nH]c3c2oc2ccccc23)cc1: 111%
O=c1cc(N2CCOCC2)oc2c(-c3ccccc3)cccc12: 98.3%
CCCNC(=O)Nc1ccc(Oc2ncnc3cc(OC)c(OC)cc23)cc1Cl: 88.7%
O=C1Nc2ccc(Br)cc2/C1=C/c1cc2c([nH]1)CCCC2: 88.5%
CCCCc1c(-c2ccc(OC)cc2)[nH]c2nccnc12: 94.4%
Cc1ccc(S(=O)(=O)/C=C/C#N)cc1: 100%
c1ccc2c(-c3ccncc3)c[nH]c2c1: 99.5%
O=C1Nc2ccccc2/C1=C\c1c(Cl)[nH]c2ccccc12: 98.5%
N#Cc1cnc2cnc(NCc3cccnc3)cc2c1Nc1ccc(F)c(Cl)c1: 92.5%
COc1ccc2c(c1)c(C1=C(c3c[nH]c4ccccc34)C(=O)NC1=O)cn2CCCN(C)C: 111%
COc1cccc(-c2cc(=O)c3ccccc3o2)c1N: 91.6%
O=C(c1cc2cc(O)ccc2[nH]1)c1cc2cc(O)ccc2[nH]1: 51.2%
Oc1cccc(-c2nc(N3CCOCC3)c3oc4ncccc4c3n2)c1: 91.9%
CN1CCN(c2ccc3nc(-c4c(N)c5c(F)cccc5[nH]c4=O)[nH]c3c2)CC1: 29.9%
O=C1NC(=O)c2c1c1c3ccccc3[nH]c1n1cncc21: 94.6%
Cc1cc(Nc2cc(N3CCN(C)CC3)nc(Sc3ccc(NC(=O)C4CC4)cc3)n2)[nH]n1: 82.7%

Set 2 — tested at: 1 µM; quantity: remaining binding
Structure (SMILES): C[C@@H]1CN(c2cc(-c3nn(C)c4ccc(OC5(C)CC5)cc34)ncn2)C[C@H](C)O1
CSNK2A2 (Homo sapiens, UniProt P19784); cell-free assay, competition with immobilised ligand: 86%
Tyrosine-protein kinase ABL1, non-phosphorylated (ABL1, Homo sapiens, UniProt P00519, F317L); cell-free assay, competition with immobilised ligand: 67%
MYLK2 (Homo sapiens, UniProt Q9H1R3); cell-free assay, competition with immobilised ligand: 87%
AAK1 (Homo sapiens, UniProt Q2M2I8); binding: 84%
EGFR (Homo sapiens, UniProt P00533, del746-750); cell-free assay, competition with immobilised ligand: 100%
NEK5 (Homo sapiens, UniProt Q6P3R8); cell-free assay, competition with immobilised ligand: 100%
PLK1 (Homo sapiens, UniProt P53350); cell-free assay, competition with immobilised ligand: 74%
SIK2 (Homo sapiens, UniProt Q9H0K1); cell-free assay, competition with immobilised ligand: 100%
CDK17 (Homo sapiens, UniProt Q00537); cell-free assay, competition with immobilised ligand: 88%
MARK4 (Homo sapiens, UniProt Q96L34); cell-free assay, competition with immobilised ligand: 100%
SBK1 (Homo sapiens, UniProt Q52WX2); cell-free assay, competition with immobilised ligand: 62%
FLT3 (Homo sapiens, UniProt P36888, D835H); cell-free assay, competition with immobilised ligand: 84%
NEK3 (Homo sapiens, UniProt P51956); cell-free assay, competition with immobilised ligand: 99%
Aurora kinase C (AURKC, Homo sapiens, UniProt Q9UQB9); cell-free assay, competition with immobilised ligand: 100%
WNK3 (Homo sapiens, UniProt Q9BYP7); cell-free assay, competition with immobilised ligand: 91%

Set 3 — organism: Plasmodium berghei; mode: inhibitor; cells: Huh-7; strain: GFP-expressing sporozoites, liver stage; tested at: 10 µM; time: 24 h; baseline: untreated control; quantity: infection rate
CCCC(=O)Nc1ccc(OCC(O)CNC(C)C)c(C(C)=O)c1 (stereo not shown): 30.1%
CN(C)CC[C@@H](c1ccc(Cl)cc1)c1ccccn1: 88.9%
CN(C)CCOC(C)(c1ccccc1)c1ccccn1 (stereo not shown): 104%
CN1CCN(C(c2ccccc2)c2ccc(Cl)cc2)CC1 (stereo not shown): 66.2%
NC[C@H]1O[C@H](O[C@H]2[C@H](O)[C@@H](O[C@H]3O[C@H](CO)[C@@H](O)[C@H](N)[C@H]3O)[C@H](N)C[C@@H]2N)[C@H](N)[C@@H](O)[C@@H]1O: 99.8%
CN(C)/N=N/c1[nH]cnc1C(N)=O: 69.3%
OC[C@@H](O)[C@@H](O[C@@H]1O[C@H](CO)[C@H](O)[C@H](O)[C@H]1O)[C@H](O)[C@@H](O)CO: 97.5%
Oc1ncnc2[nH]ncc12: 102%
CN(C)[C@@H]1C(O)=C(C(N)=O)C(=O)[C@@]2(O)C(O)=C3C(=O)c4c(O)ccc(Cl)c4[C@@H](O)[C@H]3C[C@@H]12: 66.3%
C#C[C@]1(O)CC[C@H]2[C@@H]3CCc4cc(O)ccc4[C@H]3CC[C@@]21C: 155%
COc1ccc(C(Cl)=C(c2ccc(OC)cc2)c2ccc(OC)cc2)cc1: 7.02%
Cc1ccc(-c2cc(C(F)(F)F)nn2-c2ccc(S(N)(=O)=O)cc2)cc1: 81.2%
CC(=O)O[C@]1(C(C)=O)CC[C@H]2[C@@H]3C=C(Cl)C4=CC(=O)CC[C@]4(C)[C@H]3CC[C@@]21C: 66.3%
CN(C)CCOC(=O)C(c1ccccc1)C1(O)CCCC1 (stereo not shown): 114%

Set 4 — cell line: mouse MPNST tumor cells; method: high-content immunofluorescence imaging; measured: nuclear SOX9; tested at: 10 µM; time: 12 h; setting: mean of 2 replicates; baseline: DMSO control; direction: higher = more nuclear SOX9; quantity: nuclear SOX9 intensity
CCOC(=O)[C@]12CC1/C(=N\O)c1ccccc1O2 (stereo partly shown): 102 % of DMSO
O=[N+]([O-])c1cc(Cl)ccc1S(=O)(=O)c1ccccc1: 66.9 % of DMSO
CO/N=C(\C(=O)N[C@@H]1C(=O)N2C(C(=O)OC(C)OC(C)=O)=C(COC(N)=O)CS[C@H]12)c1ccco1 (stereo partly shown): 100 % of DMSO
Cc1ccc(-c2csc3ncnc(SCCC(=O)O)c23)cc1: 100 % of DMSO
Nc1nc(CC(=O)Nc2ccc(CCNC[C@H](O)c3ccccc3)cc2)cs1: 102 % of DMSO
Cc1nc(Nc2n[nH]c3c2CN(C(=O)N[C@H](CN(C)C)c2ccccc2)C3(C)C)c2sccc2n1: 118 % of DMSO
CCN(CC)C(=O)C1(c2ccccc2)CC1CN (stereo not shown): 75.4 % of DMSO
CCCNC(C)C(=O)Nc1ccccc1C (stereo not shown): 105 % of DMSO
CCN(CC)CCN[C@@H](C(=O)OCCC(C)C)c1ccccc1: 110 % of DMSO
COc1ccc(NS(=O)(=O)c2sc3ccc(Cl)cc3c2C)cc1N1CCNCC1: 169 % of DMSO
Cc1cc(N)c2ccccc2[n+]1CCCCCCCCCC[n+]1c(C)cc(N)c2ccccc21: 70.6 % of DMSO
O=C(NCCS(=O)(=O)c1ccc(C(F)(F)F)cn1)c1ccc(Cl)cc1: 112 % of DMSO
COc1ccc(C(=O)Nc2c(Cl)cncc2Cl)cc1OC1CCCC1: 104 % of DMSO
Cc1cc(-n2nc(Cc3cc(F)cc(C(F)(F)F)c3)nc2C)ccc1C(N)=O: 129 % of DMSO
COc1c2occc2c(OC)c2c(=O)cc(C)oc12: 129 % of DMSO
Oc1ccc(/C=C/c2cc(O)cc(O)c2)cc1: 101 % of DMSO

Repeated from above (set 1):
COc1cccc(-c2cc(=O)c3ccccc3o2)c1N: 91.6%
O=c1cc(N2CCOCC2)oc2c(-c3ccccc3)cccc12: 98.3%
CCCNC(=O)Nc1ccc(Oc2ncnc3cc(OC)c(OC)cc23)cc1Cl: 88.7%
COc1ccc2c(c1)c(C1=C(c3c[nH]c4ccccc34)C(=O)NC1=O)cn2CCCN(C)C: 111%
Cc1ccc(S(=O)(=O)/C=C/C#N)cc1: 100%
Oc1cccc(-c2nc(N3CCOCC3)c3oc4ncccc4c3n2)c1: 91.9%
CCCCc1c(-c2ccc(OC)cc2)[nH]c2nccnc12: 94.4%
c1ccc2c(-c3ccncc3)c[nH]c2c1: 99.5%
Cc1cc(Nc2cc(N3CCN(C)CC3)nc(Sc3ccc(NC(=O)C4CC4)cc3)n2)[nH]n1: 82.7%
